Measured values pooled from the literature.
Compare with care: the assays were run in different laboratories.
UniProt Q08345, sequence (whole entry, looked up): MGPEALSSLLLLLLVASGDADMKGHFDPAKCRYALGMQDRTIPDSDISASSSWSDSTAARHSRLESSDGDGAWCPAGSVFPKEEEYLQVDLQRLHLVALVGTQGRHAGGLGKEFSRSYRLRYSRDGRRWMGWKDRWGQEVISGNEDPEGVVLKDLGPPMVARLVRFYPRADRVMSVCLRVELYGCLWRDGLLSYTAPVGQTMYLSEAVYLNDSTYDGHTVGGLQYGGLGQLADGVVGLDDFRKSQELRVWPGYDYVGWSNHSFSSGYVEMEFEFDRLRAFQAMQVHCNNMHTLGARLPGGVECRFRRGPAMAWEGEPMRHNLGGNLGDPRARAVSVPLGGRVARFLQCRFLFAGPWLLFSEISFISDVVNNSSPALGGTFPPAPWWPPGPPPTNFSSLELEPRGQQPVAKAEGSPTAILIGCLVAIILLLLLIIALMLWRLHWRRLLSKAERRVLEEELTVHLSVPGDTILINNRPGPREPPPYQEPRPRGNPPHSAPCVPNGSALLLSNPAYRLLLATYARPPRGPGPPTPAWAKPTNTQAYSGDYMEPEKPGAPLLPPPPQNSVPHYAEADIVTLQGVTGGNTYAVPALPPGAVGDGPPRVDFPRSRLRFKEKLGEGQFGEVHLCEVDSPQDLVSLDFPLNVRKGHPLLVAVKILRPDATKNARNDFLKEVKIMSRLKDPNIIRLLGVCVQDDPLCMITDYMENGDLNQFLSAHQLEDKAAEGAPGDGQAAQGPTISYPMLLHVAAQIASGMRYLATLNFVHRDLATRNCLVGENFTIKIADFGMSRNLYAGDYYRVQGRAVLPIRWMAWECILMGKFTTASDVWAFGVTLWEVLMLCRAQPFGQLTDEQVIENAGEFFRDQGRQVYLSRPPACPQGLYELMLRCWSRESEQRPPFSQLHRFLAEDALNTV

| Structure (SMILES) | tested on | test | test system | conditions | how to read | endpoint | value |
| --- | --- | --- | --- | --- | --- | --- | --- |
| COc1ccc(-n2nc(C(C)=O)s/c2=N\N=C(/C)c2ccc(NC(C)=O)cc2)cc1 | HepG2 | – | – | 2.5 µM | – | toxicity | 94.3% |
| CNc1ncc2c(/C=C/C(=O)N3CCC4(CC3)OCCO4)nn(Cc3cccc(C(F)(F)F)c3)c2n1 | EPC-2 pre-malignant | cell viability, PrestoBlue | – | 120 h | – | EC50 | 0.15 µM |
| Cn1c(SCc2ccc(Cl)cc2)nnc1-c1cncc(C#Cc2ccccc2)c1 | Vero | – | – | – | baseline: Vero CC50 over Mtb IC50 | selectivity index | > 46 |
| COc1ccc(-c2c[nH]c(C(=O)NC3C4CC5CC(C4)CC3C5)c2)cn1 (stereo not drawn) | Vero | – | – | 48 h | – | IC50 | 34.2 µg/mL |
| O=C1NC(=O)C(C2C3=C(CCCC3=O)Oc3ccc([N+](=O)[O-])cc32)C(=O)N1 (stereo not drawn) | mouse preadipocytes | qPCR, refers to: C/EBPα | – | IC20, 14 days, adipogenic induction | baseline: untreated cells | mRNA level | decreased |
| O=C(NC12CC3CC(CC(C3)C1)C2)c1cc(-c2ccc(F)cc2)c[nH]1 | Vero | – | – | 48 h | – | IC50 | 25.4 µg/mL |
| N=C(N)NC(=O)Cc1c(Cl)cccc1Cl | Plasmodium falciparum | – | GB4 | – | – | IC50 | 3.98 µM |
| CNc1ncc2c(/C=C/C(=O)N3CCC4(CC3)OCCO4)nn(Cc3cccc(C)c3)c2n1 | EPC-2 pre-malignant | cell viability, PrestoBlue | – | 120 h | – | EC50 | 0.91 µM |
| CN1C(=O)C(C2C3=C(CC(C)(C)CC3=O)Oc3c(O)cccc32)C(=O)N(C)C1=O (stereo not drawn) | 3T3-L1 mature adipocytes | lipolysis, Oil Red O staining | – | IC20 | – | mean lipid content | 0.665 OD492 |
| O=C(NC1C2CC3CC(C2)CC1C3)c1cc(-c2ccc(F)cc2F)c[nH]1 (stereo not drawn) | Vero | – | – | 48 h | – | IC50 | 14.4 µg/mL |
| C[C@H]1CN(c2n[nH]c3nc(N[C@H]4CC[C@H](NS(=O)(=O)CCC(F)(F)F)CC4)ncc23)CCO1 | Epithelial discoidin domain-containing receptor 1 (DDR1, Homo sapiens, UniProt Q08345) | inhibitor, Kinobeads competition profiling | – | 0.032 µM | baseline: vehicle | relative abundance | 1.03 |
| O=C(NC1C2CC3CC(C2)CC1C3)c1cc(-c2ccncc2)c[nH]1 (stereo not drawn) | Vero | – | – | 48 h | – | IC50 | 44.7 µg/mL |
| COc1ccc2c(c1)c(CCN1CCOCC1)c(C)n2C(=O)c1cccc(Cl)c1Cl | TC-71 | trypan blue exclusion | – | 10 µM, 48 h | – | viability decrease | ~30% |
| CCCCCCC#Cc1cncc(-c2nnc(SCc3ccc(Cl)c(F)c3)n2C)c1 | Vero | – | – | – | baseline: Vero CC50 over Mtb IC50 | selectivity index | > 23 |
| COCC(=O)O[C@]1(CCN(C)CCCc2nc3ccccc3[nH]2)CCc2cc(F)ccc2[C@@H]1C(C)C | Plasmodium falciparum | – | W2 | – | – | IC50 | 0.398 µM |

Excerpt of the above:
| Structure (SMILES) | tested on | test | test system | conditions | how to read | endpoint | value |
| --- | --- | --- | --- | --- | --- | --- | --- |
| CN1C(=O)C(C2C3=C(CC(C)(C)CC3=O)Oc3c(O)cccc32)C(=O)N(C)C1=O (stereo not drawn) | 3T3-L1 mature adipocytes | lipolysis, Oil Red O staining | – | IC20 | – | mean lipid content | 0.665 OD492 |
| COc1ccc(-n2nc(C(C)=O)s/c2=N\N=C(/C)c2ccc(NC(C)=O)cc2)cc1 | HepG2 | – | – | 2.5 µM | – | toxicity | 94.3% |
